Published values pooled from the literature.
Each numbered part is a random draw from the data of one study; scales do not carry over between parts. Changes are numbered by the printed parent chain.

Set 1 — method: RNA Bind-n-Seq; molecule type: RNA; medium: in vitro; concentration: 100 nM; relative to: input RNA pool; direction: higher = stronger binding
Target: RING finger protein unkempt homolog, zinc fingers 1-6, SBP tag (UNK, Homo sapiens, UniProt Q9C0B0, residues 30-357)
Sequence of UniProt Q9C0B0 (30-357, looked up): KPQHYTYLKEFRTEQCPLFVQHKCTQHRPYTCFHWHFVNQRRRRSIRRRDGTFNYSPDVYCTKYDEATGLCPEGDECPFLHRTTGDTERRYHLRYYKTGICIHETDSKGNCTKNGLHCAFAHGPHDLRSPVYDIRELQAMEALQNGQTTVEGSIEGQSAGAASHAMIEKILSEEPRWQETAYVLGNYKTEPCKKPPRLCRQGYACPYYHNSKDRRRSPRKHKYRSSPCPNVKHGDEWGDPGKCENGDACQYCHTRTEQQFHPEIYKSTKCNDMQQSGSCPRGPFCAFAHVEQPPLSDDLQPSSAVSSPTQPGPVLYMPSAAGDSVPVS
Notes: RNA with constant flanks, vertebrate orthologous sites, ends assumed
Constant ends, left off below: GGGAGUUCUACAGUCCGACGAUC … CAACAGAGGAUUGAGCAUCA
Sequence	bound/input enrichment
GAGCGCUGCCAGUGCGUAUCCACAACACUGAGUGCAAAGUAGUAAUUCCACACCCACAGUAAGGUAGUUUCAGGGCAGUGUUGCUGUGGUUCUCUCUUGGGCAGGUUCUGAAAAUGUACA	1.05 ratio
GCUCUAGUUCUUAAGAACCAACACUUGUAAGAGAUUUAGAAAAAAGUUUACAACAUAAUCUAGUUUACCGAAAGAGCCUUGUGCUAGAAUACUUUUUAAAAAGUAUUUUUGAAUACUAUU	0.565 ratio
AAACCCCGAUUUUAGAUGUGAUAUUUAGGCUUUCAUUCCAGUUUGUUUUGUUUUUUUGUUUAGAUACCAAUCUUUUAAAUUCUUGCAUUUUAGUAAGAAAGCUAUCUUUUUAUGGAUGUU	1.07 ratio
GAGCGCUGCCAGUGCGUAUCCACAACACUGGGUGCAAAGUAGUAAUUCCACACCCACAGUAAGGUAGUUUCAGGGCAGUGUUGCUGUGGUUCUCUCUUGGGCAGGUUCUGAAAAUGUACA	1.59 ratio
AAUCAGUAGAAUUACAUAAUACUAAAGUUGCAGUUGAAAGGAUAUCCAAGUAUGUGUUGGUAGUUACUAAAGGAAUUAUAGCUGUUAUUGCCUUGUAUUUAUAGACCUUGUUUCAGGUUU	0.741 ratio
CAUGCACAUGCCGCUAUCACCAAAAUCAGACUGCCAUAUUUCAAAUUUCAUUCAGAGUUUUAGUGUUUCCUAUUCCCUACCCUUCCUACUACUUUCAAUGAUGAAGUAUCCUACGUUCUC	2.09 ratio
UACUCGGGCACGAGUGAAUUAUUAUUAUUUUUCUUUCUUUAUUUUUUUUACAUUUUGUAUAGAAACAAAAUUCAUUUAAACAAACUUAUUAUUAUUAUUAUUUUUUACAAAAUAUAUAUA	1.38 ratio
AAUCAGUAGAAUUACAUAAUACUAAAGUUGCAGUUGAAAGGAUAUCCAAGUAUGUGUUGGUAGUUACUAAAAGAAUUAUAGCUGUUAUUGCCUUGUAUUGAUAGCCCUUGUUUCAGGUUU	0.888 ratio

Set 2 — target: JUN, bZIP domain (human); method: DHFR protein complementation; medium: yeast; relative to: wild-type JUN-FOS pair; direction: higher = stronger binding
Notes: single substitutions, most at no-binding floor
Starting sequence: JUN, bZIP domain (human); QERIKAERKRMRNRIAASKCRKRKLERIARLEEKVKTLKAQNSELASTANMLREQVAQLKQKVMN; partner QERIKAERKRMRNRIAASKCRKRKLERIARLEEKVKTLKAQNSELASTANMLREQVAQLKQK
Change	binding fitness
E33A	-0.23 natural log
K34F	-0.473 natural log
E54G	-0.41 natural log
M51G	-0.325 natural log
A57Y	-0.45 natural log
R53C	-0.994 natural log
N42M	-1.2 natural log
Q41M	-0.306 natural log

Set 3 — method: RNA Bind-n-Seq; molecule type: RNA; medium: in vitro; concentration: 200 nM; notes: whole 134-nt RNA, ends assumed; added: 150 mM KCl; relative to: input library; direction: higher = stronger binding
Target: Fragile X messenger ribonucleoprotein 1, C-terminal low-complexity region (Fmr1, Mus musculus, UniProt P35922)
Constant ends, left off below: GGGAGUUCUACAGUCCGACGAUC … UGGAAUUCUCGGGUGUCAAGG
Sequence	log2 enrichment
UGGACCUGGUGGCAUGCGGGGAGGAAGAGGUGGCCUCAUGGAUCGUGGUGGUCCCGGUGGAAUGUUCAGAGGUGGCCGUGGUGGAGACAG	0.432
ACCAUGCAGGUGGGCAUCUUUGGGAAGUGGGGCAAGGGGGGGAUAGGGAGGGGGGUAACACGUUGGGAACAGGUGGUCCCAGGUCGUUUC	0.919
GUCCUGUGCUACACAUCGUAUGUACCGAAUCGGGGUGGGGUUUUUUUGGGGUUUGGGGAAAGUAUUAUGUUACGCCGUUCGGAUCUGCAC	0.695
UGGGAGGUGGAUUUUGGUUAUUUUUUUAGCUCAUUUCCAGGGGUGGGAAUUUUUUUUUAAUAUGUGUCAUGAAUAAAGUUGUUUUUGAAA	0.264
GCAGGAAGUACAAACAAAUGGAAAUGCUUCGGAUAGUGGCAGGGGUGGGGGUUGCUAAGGAAAGGGUGGGAUGGGAGUGGGUAAAGAGUU	0.246
CAAGUCCUGUGCUACACAUCGUAUGUACCGAAUCGGAAAGGGGAAAGGGGAAAGGGAAAGUAUUAUGUUACGCCGUUCGGAUCUGCACUU	0.145
CAAGUCCUGUGCUACACAUCGUAUGUACCGAAUCGGGAAAGGGAGGGAAAAAGGGAAAGUAUUAUGUUACGCCGUUCGGAUCUGCACUUC	0.769
UGGCCCUGGUGGCAUGCCGGGAGGAAGAGGUGGCCUCAUGGAUCGUGGUGGUCCCGGUGGAAUGUUCAGAGGUGGCCGUGGUGGAGACAG	-0.127

Other studies, line by line
Starting sequence: PafA, mature enzyme, eGFP fusion (Elizabethkingia meningoseptica, UniProt Q9KJX5); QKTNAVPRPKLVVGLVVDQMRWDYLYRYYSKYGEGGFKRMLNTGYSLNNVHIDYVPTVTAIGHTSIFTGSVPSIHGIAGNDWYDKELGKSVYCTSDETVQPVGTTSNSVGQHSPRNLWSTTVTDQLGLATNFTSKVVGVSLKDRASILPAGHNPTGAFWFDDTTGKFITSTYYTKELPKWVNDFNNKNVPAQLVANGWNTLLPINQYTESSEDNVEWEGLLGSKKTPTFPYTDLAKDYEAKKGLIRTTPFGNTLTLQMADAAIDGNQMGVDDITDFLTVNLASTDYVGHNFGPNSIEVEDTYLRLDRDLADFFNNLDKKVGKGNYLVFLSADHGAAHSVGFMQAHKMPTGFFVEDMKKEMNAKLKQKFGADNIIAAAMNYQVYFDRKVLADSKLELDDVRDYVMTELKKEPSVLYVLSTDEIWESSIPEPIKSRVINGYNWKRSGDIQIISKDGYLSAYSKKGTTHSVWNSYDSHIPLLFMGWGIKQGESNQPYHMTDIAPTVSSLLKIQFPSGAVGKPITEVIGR
Change	target	test	test system	setting	scale	quantity	value
T284G	tungstate, free oxyanion	microfluidic competitive inhibition	in vitro, cell-free expressed	not given, derived from inhibition constants, unchanged parent 2230 nM	lower = stronger binding	oxyanion analog dissociation constant	2.15 µM

Some of these lines once more (set 2):
Change	binding fitness
N42M	-1.2 natural log
E54G	-0.41 natural log
M51G	-0.325 natural log
Q41M	-0.306 natural log
